Results collected from several papers.
Numbered parts are unrelated; each lists some results of a single study.

Study 1 — method: universal PBM; molecule type: double-stranded DNA, one strand shown; medium: in vitro; concentration: 600 nM; reading: higher = stronger binding
Target: Sal-like protein 4, full length isoform A (SALL4, Homo sapiens, UniProt Q9UJQ4, residues 1-1053)
Sequence of UniProt Q9UJQ4 (whole entry, looked up): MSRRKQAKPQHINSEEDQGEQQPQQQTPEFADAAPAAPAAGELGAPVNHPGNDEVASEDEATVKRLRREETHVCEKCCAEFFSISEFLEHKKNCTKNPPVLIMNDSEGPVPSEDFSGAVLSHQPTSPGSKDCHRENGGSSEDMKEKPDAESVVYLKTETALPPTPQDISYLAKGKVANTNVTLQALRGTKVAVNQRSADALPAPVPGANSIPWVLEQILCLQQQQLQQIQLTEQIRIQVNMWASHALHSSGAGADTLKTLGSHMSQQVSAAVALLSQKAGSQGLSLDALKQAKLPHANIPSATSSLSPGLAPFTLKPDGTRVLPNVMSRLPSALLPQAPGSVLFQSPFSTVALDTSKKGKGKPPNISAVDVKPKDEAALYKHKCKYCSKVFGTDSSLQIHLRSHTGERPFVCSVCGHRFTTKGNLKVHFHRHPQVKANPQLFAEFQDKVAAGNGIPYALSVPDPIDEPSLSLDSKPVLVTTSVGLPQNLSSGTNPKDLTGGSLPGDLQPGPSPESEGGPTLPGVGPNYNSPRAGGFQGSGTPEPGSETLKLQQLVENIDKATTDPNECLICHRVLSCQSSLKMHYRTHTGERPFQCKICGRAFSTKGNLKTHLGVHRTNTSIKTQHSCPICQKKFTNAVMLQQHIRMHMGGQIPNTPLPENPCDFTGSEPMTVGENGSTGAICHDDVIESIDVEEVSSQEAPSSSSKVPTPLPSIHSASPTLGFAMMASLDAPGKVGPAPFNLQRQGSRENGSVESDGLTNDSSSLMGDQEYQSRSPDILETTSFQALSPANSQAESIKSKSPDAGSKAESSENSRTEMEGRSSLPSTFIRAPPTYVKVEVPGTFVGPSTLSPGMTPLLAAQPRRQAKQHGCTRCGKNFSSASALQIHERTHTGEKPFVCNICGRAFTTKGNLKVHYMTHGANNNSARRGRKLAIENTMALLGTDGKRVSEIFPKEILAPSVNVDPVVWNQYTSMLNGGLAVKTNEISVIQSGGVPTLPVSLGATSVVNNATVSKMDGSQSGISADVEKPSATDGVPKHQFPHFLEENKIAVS
Notes: 8-mer, flanks averaged, mean of replicates
| Strand | E-score |
| --- | --- |
| GATCTCGC | -0.0853 |
| TCTAGCCA | -0.00383 |
| AAAACTTC | 0.146 |
| ATTCCAGC | -0.0653 |

Study 2 — method: protein binding microarray; molecule type: double-stranded DNA, one strand shown; medium: in vitro; concentration: not given; baseline: not given; reading: higher = stronger binding
Target: Histone acetyltransferase KAT6A, winged helix 1, GST fusion (KAT6A, Homo sapiens, UniProt Q92794, residues 1-85)
Notes: 8-mer, flanks averaged, mean of 2 arrays, mostly near background
Construct (chain): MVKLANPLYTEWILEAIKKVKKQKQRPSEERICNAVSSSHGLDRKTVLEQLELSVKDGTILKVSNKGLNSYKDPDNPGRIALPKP
| Strand | E-score |
| --- | --- |
| ACGGCTCC | 0.354 |
| AAGTCGCT | 0.0254 |
| AGGACTTC | -0.158 |
| AAGAGTGG | -0.141 |
| ACCCTCGC | 0.0961 |

Study 3 — method: protein-binding microarray; molecule type: double-stranded DNA, one strand shown; medium: in vitro; concentration: 250 nM; notes: 60-bp whole probe; with: salmon DNA 0.4 mg/ml; baseline: random background probes; reading: higher = stronger binding; constant ends, left off below: GCCTAGCAC … GTCTTGATTCGCTTGACGCTGCTG
Target: Interferon regulatory factor 5, full length, phosphomimetic (IRF5, Homo sapiens, UniProt Q13568-2, residues 1-514, K96S/S451D/S453D/S456D/S462D)
| Strand | log fluorescence |
| --- | --- |
| GACGGTCTCATTTTCCTGACGTGCTAG | 0.401 z-score |
| TTAGATTTCGGGACTGGATTGGTGCTA | 2.58 z-score |
| TTAGGACTGGACACTGGGTGAGTGCTA | -0.444 z-score |
| TTAGGTATCGGTCTCGGTTTGTGCTAG | 7.11 z-score |
| TACGATCTCAGTCTCGAGACGTGCTAG | 0.239 z-score |
| GACGGTTTCAACACTGGGGACGTGCTA | 0.892 z-score |

Other studies, line by line
| Substance | target | test | system | setting | how to read | quantity | value |
| --- | --- | --- | --- | --- | --- | --- | --- |
| PhoQ, residues 284 288 289 292 302 303 QWGLFV | PhoP, residues 12 14 15 18 19 IFFTR (Escherichia coli, UniProt P23836) | Sort-seq, measured: YFP reporter | E. coli | PhoQ-PhoP variant library, with: 10 µM Mg2+ | baseline: high Mg2+ state, higher = stronger signaling | fold induction | 7.02 |

For quick reference, copied from above (study 1):
| Strand | E-score |
| --- | --- |
| ATTCCAGC | -0.0653 |
